Published values of several laboratories.
“And” joins repeats or separate records; there may be more than shown. ± gives the spread as reported. ≈ marks a conversion by molar mass, not a printed value.
UniProt Q9UM07, sequence (whole entry, looked up): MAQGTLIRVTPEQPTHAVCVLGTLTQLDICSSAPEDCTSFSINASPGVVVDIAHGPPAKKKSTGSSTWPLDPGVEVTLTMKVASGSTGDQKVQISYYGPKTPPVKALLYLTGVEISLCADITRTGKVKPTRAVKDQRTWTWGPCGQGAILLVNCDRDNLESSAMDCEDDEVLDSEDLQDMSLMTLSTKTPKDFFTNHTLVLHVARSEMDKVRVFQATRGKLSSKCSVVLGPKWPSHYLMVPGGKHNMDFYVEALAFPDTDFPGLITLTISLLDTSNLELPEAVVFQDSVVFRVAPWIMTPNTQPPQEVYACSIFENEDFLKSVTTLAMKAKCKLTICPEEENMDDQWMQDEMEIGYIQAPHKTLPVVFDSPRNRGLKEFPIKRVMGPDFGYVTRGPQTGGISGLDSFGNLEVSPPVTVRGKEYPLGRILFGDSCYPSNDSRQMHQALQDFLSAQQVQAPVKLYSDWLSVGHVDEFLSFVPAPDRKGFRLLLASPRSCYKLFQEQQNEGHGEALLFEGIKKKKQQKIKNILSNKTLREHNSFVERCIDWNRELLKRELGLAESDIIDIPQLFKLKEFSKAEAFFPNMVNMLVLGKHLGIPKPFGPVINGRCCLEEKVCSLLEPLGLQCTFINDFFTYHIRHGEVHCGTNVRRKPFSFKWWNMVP
UniProt Q9UKI8, sequence (whole entry, looked up): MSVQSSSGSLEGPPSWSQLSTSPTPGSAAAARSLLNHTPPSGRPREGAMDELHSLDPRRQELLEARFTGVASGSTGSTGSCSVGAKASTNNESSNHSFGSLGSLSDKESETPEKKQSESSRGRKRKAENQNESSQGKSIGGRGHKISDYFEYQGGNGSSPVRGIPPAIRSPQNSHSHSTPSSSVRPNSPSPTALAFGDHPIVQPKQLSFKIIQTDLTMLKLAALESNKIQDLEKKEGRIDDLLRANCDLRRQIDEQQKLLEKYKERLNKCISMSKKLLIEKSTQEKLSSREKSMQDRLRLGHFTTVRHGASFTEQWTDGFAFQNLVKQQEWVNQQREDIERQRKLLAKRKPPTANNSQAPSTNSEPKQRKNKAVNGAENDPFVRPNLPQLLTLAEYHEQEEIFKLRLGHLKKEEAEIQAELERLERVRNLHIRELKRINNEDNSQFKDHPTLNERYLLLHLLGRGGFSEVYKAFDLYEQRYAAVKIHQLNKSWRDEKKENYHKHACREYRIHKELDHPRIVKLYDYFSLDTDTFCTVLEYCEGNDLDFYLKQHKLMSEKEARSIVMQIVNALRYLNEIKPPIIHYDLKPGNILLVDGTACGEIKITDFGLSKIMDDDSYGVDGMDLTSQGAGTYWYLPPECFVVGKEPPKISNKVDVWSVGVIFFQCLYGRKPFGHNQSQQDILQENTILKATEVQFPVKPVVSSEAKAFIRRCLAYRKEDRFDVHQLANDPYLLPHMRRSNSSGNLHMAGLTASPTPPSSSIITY
UniProt O88531, sequence (whole entry, looked up): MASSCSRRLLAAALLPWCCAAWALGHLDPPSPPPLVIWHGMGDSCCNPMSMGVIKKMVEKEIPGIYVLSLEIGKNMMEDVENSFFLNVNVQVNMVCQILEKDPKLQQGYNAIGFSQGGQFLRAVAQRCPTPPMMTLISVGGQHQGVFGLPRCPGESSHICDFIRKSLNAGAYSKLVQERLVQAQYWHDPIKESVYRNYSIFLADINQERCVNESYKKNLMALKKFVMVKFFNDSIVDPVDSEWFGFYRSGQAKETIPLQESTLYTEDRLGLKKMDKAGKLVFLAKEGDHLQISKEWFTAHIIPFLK
UniProt P47898, sequence (whole entry, looked up): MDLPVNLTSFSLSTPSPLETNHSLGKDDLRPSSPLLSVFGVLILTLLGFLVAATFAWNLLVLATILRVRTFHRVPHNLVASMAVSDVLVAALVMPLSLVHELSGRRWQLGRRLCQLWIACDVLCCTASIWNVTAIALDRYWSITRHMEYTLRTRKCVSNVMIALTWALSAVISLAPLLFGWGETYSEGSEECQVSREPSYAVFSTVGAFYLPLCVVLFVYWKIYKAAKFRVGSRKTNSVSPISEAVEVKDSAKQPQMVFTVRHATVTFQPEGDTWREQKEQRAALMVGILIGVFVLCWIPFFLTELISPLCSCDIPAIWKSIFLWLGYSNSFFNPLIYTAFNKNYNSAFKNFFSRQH
UniProt Q9NYY3, sequence (whole entry, looked up): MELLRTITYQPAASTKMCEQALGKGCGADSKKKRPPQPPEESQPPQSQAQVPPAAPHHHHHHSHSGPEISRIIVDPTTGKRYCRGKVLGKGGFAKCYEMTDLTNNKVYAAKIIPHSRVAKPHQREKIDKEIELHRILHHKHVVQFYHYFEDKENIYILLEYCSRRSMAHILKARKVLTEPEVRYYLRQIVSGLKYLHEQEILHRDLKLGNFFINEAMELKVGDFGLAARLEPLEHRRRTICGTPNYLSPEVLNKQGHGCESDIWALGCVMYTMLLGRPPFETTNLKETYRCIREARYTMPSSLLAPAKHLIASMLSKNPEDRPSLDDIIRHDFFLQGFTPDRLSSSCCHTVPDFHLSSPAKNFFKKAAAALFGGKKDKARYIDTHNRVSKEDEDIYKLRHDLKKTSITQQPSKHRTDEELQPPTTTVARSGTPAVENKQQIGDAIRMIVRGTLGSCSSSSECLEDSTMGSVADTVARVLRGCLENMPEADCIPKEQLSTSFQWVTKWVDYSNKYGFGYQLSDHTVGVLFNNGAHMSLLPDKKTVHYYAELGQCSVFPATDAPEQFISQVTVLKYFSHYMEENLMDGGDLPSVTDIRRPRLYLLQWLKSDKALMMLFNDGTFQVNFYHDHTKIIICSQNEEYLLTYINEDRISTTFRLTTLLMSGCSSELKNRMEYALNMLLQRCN
UniProt O00506, sequence (whole entry, looked up): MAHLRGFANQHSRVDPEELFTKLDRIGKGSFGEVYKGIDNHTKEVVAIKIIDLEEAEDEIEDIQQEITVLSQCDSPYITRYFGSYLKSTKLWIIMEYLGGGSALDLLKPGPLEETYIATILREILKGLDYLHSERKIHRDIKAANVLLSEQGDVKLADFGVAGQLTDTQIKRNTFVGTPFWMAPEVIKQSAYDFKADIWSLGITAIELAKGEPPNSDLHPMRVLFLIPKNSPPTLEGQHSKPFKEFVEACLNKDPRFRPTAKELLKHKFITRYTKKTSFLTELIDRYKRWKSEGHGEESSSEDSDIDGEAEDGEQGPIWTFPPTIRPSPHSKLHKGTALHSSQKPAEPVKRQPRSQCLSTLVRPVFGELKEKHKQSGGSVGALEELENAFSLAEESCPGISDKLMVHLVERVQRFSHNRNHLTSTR
UniProt P00519, sequence (whole entry, looked up): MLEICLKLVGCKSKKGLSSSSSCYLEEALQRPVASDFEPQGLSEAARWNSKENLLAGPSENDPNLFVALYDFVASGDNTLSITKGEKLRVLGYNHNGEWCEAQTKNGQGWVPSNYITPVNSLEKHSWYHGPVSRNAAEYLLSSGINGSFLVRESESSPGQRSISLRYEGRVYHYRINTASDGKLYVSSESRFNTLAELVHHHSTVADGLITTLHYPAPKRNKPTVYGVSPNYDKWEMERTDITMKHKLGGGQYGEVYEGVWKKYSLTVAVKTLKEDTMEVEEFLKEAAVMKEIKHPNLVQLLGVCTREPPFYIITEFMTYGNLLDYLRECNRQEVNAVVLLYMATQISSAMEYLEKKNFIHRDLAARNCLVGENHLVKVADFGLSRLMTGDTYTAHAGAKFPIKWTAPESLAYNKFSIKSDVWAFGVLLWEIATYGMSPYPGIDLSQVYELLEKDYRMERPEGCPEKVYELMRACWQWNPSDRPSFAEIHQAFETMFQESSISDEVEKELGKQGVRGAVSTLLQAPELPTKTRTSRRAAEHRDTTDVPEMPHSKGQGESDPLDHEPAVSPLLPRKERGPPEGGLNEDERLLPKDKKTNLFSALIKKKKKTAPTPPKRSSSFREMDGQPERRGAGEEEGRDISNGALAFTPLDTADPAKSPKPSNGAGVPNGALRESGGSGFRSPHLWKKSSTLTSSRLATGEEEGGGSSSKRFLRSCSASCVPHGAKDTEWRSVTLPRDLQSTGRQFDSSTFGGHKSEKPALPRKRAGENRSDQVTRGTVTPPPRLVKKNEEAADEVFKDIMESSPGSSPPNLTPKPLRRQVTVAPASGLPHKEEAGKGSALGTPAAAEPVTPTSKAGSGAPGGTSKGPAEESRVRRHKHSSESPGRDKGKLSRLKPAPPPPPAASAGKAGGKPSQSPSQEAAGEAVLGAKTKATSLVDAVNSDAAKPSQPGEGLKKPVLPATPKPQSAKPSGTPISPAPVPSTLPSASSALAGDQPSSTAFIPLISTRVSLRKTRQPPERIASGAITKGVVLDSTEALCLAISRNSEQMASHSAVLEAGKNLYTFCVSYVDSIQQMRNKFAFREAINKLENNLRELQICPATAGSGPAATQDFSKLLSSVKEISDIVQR
UniProt Q99895, sequence (whole entry, looked up): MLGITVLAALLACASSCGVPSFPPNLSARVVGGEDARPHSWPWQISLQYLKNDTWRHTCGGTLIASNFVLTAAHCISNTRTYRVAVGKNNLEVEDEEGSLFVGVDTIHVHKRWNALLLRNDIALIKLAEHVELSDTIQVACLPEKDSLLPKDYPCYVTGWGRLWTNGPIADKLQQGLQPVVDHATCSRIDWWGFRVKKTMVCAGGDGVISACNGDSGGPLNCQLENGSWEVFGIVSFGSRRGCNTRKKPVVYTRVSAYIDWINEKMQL

With `CC(C)CC(O)(CC(C)C)c1cn(C(=O)N2CCCC2)nn1` the activity ratio-of-ratios was 0.92 (Palmitoyl-protein thioesterase 1 (Ppt1, Mus musculus, UniProt O88531); probe labelling, inhibitor, refers to: Ppt1; mouse, brain; i.p., 0.8 mg/kg, 4 h, protein level; relative to: treated over vehicle mice, lower = stronger inhibition).
`COc1ccccc1-c1n[nH]c2nc(NC3CCN(C(=O)Cc4ccc(F)cc4F)CC3)ncc12` has a relative abundance of 1.01 (bead binding, competition bead pull-down, refers to: LINJ.35.3750; Leishmania donovani axenic amastigote extract; 10 µM; relative to: vehicle).
For `CC[C@H](C)[C@@H]([C@@H](CC(=O)N1CCC[C@H]1[C@H](OC)[C@@H](C)C(=O)N[C@H](C)[C@@H](O)c1ccccc1)OC)N(C)C(=O)[C@@H](NC(=O)[C@H](C(C)C)N(C)C(=O)OCc1ccc(NC(=O)[C@H](CCCNC(N)=O)NC(=O)[C@@H](NC(=O)CCCCCN2C(=O)CC(SC[C@H](NC(=O)[C@H](CC(=O)O)NC(=O)[C@H](Cc3ccc(O)cc3)NC(=O)[C@H](Cc3c[nH]c4ccccc34)NC(=O)[C@@H](N)CCCNC(=N)N)C(=O)O)C2=O)C(C)C)cc1)C(C)C` (stereo partly shown), concentration read “not detected” (C57BL/6 mice (healthy), serum and organs; intraperitoneal, 2.5 mg/kg, 6 h).
`O=C1NC(=O)c2c1c1cc(F)c[n+]3c1c1c2c2cc(O)ccc2[n]1[Ru-4]312([N]=C=S)[S+]3CC[S+]1CC[S+]2CC3` (stereo not shown) has a remaining activity of 93% (Serine/threonine-protein kinase PLK2 (PLK2, Homo sapiens, UniProt Q9NYY3); enzyme activity; 100 nM, human enzyme, added: 10 µM ATP; relative to: untreated).
`CN(C)[C@H]1C[C@@]23CC[C@@]4(O2)C(=CC[C@]2(C)[C@@H](c5ccc6ccncc6c5)CC[C@H]24)C=C3[C@@H](O)[C@@H]1O` gave an inhibition of -3.9% (Serine/threonine-protein kinase tousled-like 1 (TLK1, Homo sapiens, UniProt Q9UKI8); ATP probe labelling, inhibitor, KiNativ profiling; 0.1 µM).
`CCOc1ccc(CNCCc2ccc3c(c2)OCO3)cc1` gave a translation activity of 112% (Trypanosoma cruzi; reporter mRNA translation, inhibitor, refers to: Renilla luciferase mRNA; cell-free extract; concentration not given, test 3; relative to: positive over negative control).
For `CS(C)(=O)=Nc1ccc(-c2ccc(-c3nc4cc(O[C@@H]5CO[C@H]6[C@@H]5OC[C@H]6O)[nH]c4cc3F)cc2)cc1`, the inhibition was 5% (Serine/threonine-protein kinase 25 (STK25, Homo sapiens, UniProt O00506); enzyme activity, inhibitor; 10 µM).
`O=C1NC2(CC2)COc2ncc(F)cc2[C@H]2COCCN2c2ccn3ncc1c3n2`: “organ-to-brain weight ratio” 34.2 ± 5.11% (Sprague-Dawley rat, male, thymus; oral, 10 mg/kg/day, 4 weeks, end of treatment).
`Cc1sc2c(c1C)C(c1ccc(Cl)cc1)=NC(CC(=O)OC(C)(C)C)c1nnc(C)n1-2` (stereo not shown) gave an inhibition of -7% (5-hydroxytryptamine receptor 5A (HTR5A, Homo sapiens, UniProt P47898); ligand displacement, radioligand; 1 µM).
`C#CCN(Cc1ccc2nc(C)[nH]c(=O)c2c1)C(=O)NC(CSCC(N)=O)c1cccc([N+](=O)[O-])c1` (stereo not shown) has an MIC50 of 37.4 µM (≈ 19 µg/mL) (Mycobacterium tuberculosis; bacterial growth, inhibitor; H37Rv pptT conditional knockdown; PptT depleted, ATc withheld).
The inhibition of `CC(C)[C@H]1NC(=O)C[C@H]2/C=C/CCSSC[C@@H](NC1=O)C(=O)N[C@H](Cc1cccc3ccccc13)C(=O)NCC(=O)O2` is reported as -2.8% (Epidermal growth factor receptor (EGFR, Homo sapiens, UniProt P00533, del746-750); enzyme activity, inhibitor; 10 µM).
The tissue uptake of `CC[C@H](C)[C@H](NC(=O)[C@H](CCCCN)NC(=O)CNC(=O)[C@H](CC(C)C)NC(=O)[C@H](Cc1ccccc1)NC(=O)[C@H](CCCCN)NC(=O)[C@H](CO)NC(=O)[C@H](Cc1ccccc1)NC(=O)[C@H](Cc1c[nH]c2ccccc12)NC(=O)[C@H](CCC(N)=O)NC(=O)[C@@H](NC(=O)[C@H](Cc1ccccc1)NC(=O)CCCCCNC(=O)CN1CCN(CC(=O)O)CCN(CC(=O)O)CCN(CC(=O)O)CC1)C(C)C)C(=O)N[C@@H](CCC(=O)O)C(=O)N1CCC[C@H]1C(=O)N[C@@H](CC(=O)O)C(=O)N[C@H](C(=O)N[C@@H](CO)C(=O)N[C@@H](CCC(N)=O)C(=O)N[C@H](C(=O)N[C@@H](CCC(N)=O)C(=O)N[C@@H](CC(=O)O)C(=O)N1CCC[C@H]1C(=O)N[C@@H](CC(N)=O)C(=O)N[C@@H](CC(=O)O)C(=O)N[C@@H](CCC(N)=O)C(=O)N[C@@H](Cc1ccc(O)cc1)C(=O)N[C@@H](CCC(=O)O)C(=O)N1CCC[C@H]1C(=O)N[C@@H](Cc1ccccc1)C(=O)O)C(C)C)C(C)C` [copper-64 labelled] is reported as 1.55 ± 0.1 %ID/g (C57BL/6 mice, male, tumour-free, blood; 2 h).
`N[C@H](C(=O)N1CCCC1)C1CCN(c2nccc3c(-c4ncc(Cl)cc4Cl)cccc23)CC1` has a melting temperature of 53.3 °C and 53.4 °C (Protein-arginine deiminase type-4 (PADI4, Homo sapiens, UniProt Q9UM07); thermal shift; 0.03013 µM).
The remaining binding of `Nc1ccc(/C=C/C(=O)N2CCc3c(oc4c(-c5ccc(F)cc5)cc(-c5ccc(C(=O)N6CCC(F)(F)CC6)cn5)cc34)C2)cn1` is reported as 99% (Tyrosine-protein kinase ABL1, phosphorylated (ABL1, Homo sapiens, UniProt P00519); binding, competition with immobilised ligand; 1 µM).
`COc1ccc(N2CCN(C(CNC(=O)Oc3ccccc3)c3cccnc3)CC2)cc1` (stereo not shown) has a relative translation of 101% (Trypanosoma cruzi; reporter mRNA translation, inhibitor, refers to: capped polyadenylated Renilla luciferase mRNA; cell-free extract; concentration not given; relative to: control RNA).
`CSCC[C@@H]1NC(=O)[C@H](Cc2ccccc2)NC(=O)[C@H]([C@@H](C)O)NC(=O)[C@@H]2CSSC[C@@H]3NC(=O)[C@H]([C@@H](C)O)NC(=O)[C@H](CC(N)=O)NC(=O)[C@H](CSSC[C@@H](C(=O)N[C@@H](CC(=O)O)C(=O)N[C@@H](CCC(N)=O)C(=O)O)NC(=O)[C@H](CC(C)C)NC1=O)NC(=O)[C@H](CCCCN)NC(=O)[C@H](CC(=O)O)NC(=O)[C@H](CCCCN)NC(=O)[C@H](Cc1ccccc1)NC(=O)[C@H]([C@@H](C)O)NC(=O)[C@H]([C@@H](C)O)NC(=O)CNC(=O)[C@@H]1CCCN1C(=O)[C@H](CCC(=O)O)NC(=O)[C@@H](NC(=O)[C@@H](NC(=O)[C@@H](NC(=O)[C@H](CCC(=O)O)NC(=O)[C@H](CO)NC(=O)CN)C(C)C)[C@@H](C)O)CSSC[C@H](NC(=O)[C@H](CCCNC(=N)N)NC3=O)C(=O)NCC(=O)N[C@@H](CO)C(=O)N[C@@H](CC(=O)O)C(=O)NCC(=O)N[C@@H](CCCCN)C(=O)N[C@@H](CO)C(=O)N[C@@H](C)C(=O)N[C@@H](Cc1ccc(O)cc1)C(=O)N2` has a cleaved form of 3% (Chymotrypsin-C (Homo sapiens, UniProt Q99895); substrate, LC-MS; 15 µM, pH 8.0, 25 °C, added: Chymotrypsin-C 150 nM).

Repeated from above:
`Cc1sc2c(c1C)C(c1ccc(Cl)cc1)=NC(CC(=O)OC(C)(C)C)c1nnc(C)n1-2` (stereo not shown) gave an inhibition of -7% (5-hydroxytryptamine receptor 5A (HTR5A, Homo sapiens, UniProt P47898); ligand displacement, radioligand; 1 µM).
